Assay results collected from several papers.
Protocols differ between the studies behind these lines. ± marks the error that the study gave.
GLP1R: Glucagon-like peptide 1 receptor (GLP1R, Homo sapiens, UniProt P43220)
UniProt P25440, sequence (whole entry, unmodified, looked up): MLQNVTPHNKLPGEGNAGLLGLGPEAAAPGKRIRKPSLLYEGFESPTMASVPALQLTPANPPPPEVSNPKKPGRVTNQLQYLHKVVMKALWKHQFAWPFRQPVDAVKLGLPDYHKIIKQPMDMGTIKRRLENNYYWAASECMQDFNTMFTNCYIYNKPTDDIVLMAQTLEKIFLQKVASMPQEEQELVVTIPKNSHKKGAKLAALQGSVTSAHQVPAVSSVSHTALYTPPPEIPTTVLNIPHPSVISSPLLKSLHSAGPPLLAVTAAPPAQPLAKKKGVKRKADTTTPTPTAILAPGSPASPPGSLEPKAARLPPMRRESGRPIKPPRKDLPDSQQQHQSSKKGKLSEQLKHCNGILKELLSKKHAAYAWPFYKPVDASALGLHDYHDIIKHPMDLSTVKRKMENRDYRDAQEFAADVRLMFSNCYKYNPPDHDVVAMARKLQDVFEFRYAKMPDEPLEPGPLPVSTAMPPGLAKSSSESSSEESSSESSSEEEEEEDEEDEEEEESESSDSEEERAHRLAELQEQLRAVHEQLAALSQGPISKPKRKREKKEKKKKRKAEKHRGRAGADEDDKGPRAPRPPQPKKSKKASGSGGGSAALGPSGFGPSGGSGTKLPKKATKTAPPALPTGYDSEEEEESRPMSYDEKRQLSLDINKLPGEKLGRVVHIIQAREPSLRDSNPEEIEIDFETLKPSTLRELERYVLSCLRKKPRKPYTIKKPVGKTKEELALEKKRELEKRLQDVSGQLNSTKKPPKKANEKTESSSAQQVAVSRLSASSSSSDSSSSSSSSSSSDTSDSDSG
UniProt Q9NQ84, sequence (whole entry, looked up): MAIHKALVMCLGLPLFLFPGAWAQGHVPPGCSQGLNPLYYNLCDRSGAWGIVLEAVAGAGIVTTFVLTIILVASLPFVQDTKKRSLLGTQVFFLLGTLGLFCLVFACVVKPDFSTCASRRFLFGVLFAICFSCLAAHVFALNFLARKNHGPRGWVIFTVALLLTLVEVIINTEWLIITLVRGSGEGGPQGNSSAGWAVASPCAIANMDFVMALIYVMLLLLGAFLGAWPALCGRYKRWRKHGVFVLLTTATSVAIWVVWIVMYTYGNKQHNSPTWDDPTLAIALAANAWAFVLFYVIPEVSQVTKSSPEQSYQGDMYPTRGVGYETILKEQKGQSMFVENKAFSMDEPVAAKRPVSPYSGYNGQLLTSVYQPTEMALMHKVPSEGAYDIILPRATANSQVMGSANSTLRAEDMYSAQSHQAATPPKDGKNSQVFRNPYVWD
UniProt Q08499, sequence (whole entry, unmodified, looked up): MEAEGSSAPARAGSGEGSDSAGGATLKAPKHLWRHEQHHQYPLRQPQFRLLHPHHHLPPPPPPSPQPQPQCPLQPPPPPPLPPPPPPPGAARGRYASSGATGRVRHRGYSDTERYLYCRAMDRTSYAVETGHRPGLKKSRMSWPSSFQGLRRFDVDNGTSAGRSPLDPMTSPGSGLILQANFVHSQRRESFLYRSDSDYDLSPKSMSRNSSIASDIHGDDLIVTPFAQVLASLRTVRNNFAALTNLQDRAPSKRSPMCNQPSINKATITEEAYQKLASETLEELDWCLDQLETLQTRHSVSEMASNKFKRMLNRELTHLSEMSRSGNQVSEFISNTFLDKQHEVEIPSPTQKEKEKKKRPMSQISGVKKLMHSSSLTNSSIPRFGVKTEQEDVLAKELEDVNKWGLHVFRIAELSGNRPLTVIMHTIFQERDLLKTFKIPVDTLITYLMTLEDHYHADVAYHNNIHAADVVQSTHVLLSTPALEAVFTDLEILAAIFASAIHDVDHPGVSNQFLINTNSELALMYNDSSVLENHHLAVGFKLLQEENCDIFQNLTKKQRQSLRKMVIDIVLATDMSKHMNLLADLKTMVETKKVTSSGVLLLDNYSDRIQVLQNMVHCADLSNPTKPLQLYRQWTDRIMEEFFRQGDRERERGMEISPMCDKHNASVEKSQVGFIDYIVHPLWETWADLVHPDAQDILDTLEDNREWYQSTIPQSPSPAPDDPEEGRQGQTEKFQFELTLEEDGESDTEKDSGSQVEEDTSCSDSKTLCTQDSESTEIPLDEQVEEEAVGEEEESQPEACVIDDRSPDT
UniProt P40337, sequence (whole entry, unmodified, looked up): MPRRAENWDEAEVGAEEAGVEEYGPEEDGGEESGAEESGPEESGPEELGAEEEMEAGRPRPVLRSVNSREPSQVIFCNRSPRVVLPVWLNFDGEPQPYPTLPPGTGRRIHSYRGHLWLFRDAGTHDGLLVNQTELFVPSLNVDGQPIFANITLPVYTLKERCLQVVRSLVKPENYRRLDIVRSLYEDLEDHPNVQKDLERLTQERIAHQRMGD

SMILES | target or system | test | system | setting | how to read | measurement | value
CC[C@H](C)[C@H](NC(=O)[C@H](Cc1ccccc1)NC(=O)[C@H](CCC(=O)O)NC(=O)[C@H](CCCNC(=N)N)NC(=O)[C@H](C)NC(=O)[C@H](C)NC(=O)[C@H](CCC(N)=O)NC(=O)[C@H](CCC(=O)O)NC(=O)[C@H](CCC(=O)O)NC(=O)[C@H](CC(C)C)NC(=O)[C@H](Cc1ccc(O)cc1)NC(=O)[C@H](CO)NC(=O)[C@H](CO)NC(=O)[C@@H](NC(=O)[C@H](CC(=O)O)NC(=O)[C@H](CO)NC(=O)[C@@H](NC(=O)[C@H](Cc1ccccc1)NC(=O)[C@@H](NC(=O)CNC(=O)[C@H](CCC(=O)O)NC(=O)[C@H](C)NC(=O)CCc1cnc[nH]1)[C@@H](C)O)[C@@H](C)O)C(C)C)C(=O)N[C@@H](C)C(=O)N[C@@H](Cc1c[nH]c2ccccc12)C(=O)N[C@@H](CC(C)C)C(=O)N[C@H](C(=O)N[C@@H](CCCNC(=N)N)C(=O)NCC(=O)N[C@@H](CCCNC(=N)N)C(=O)N[C@@H](CCCCNC(=O)COCCOCCNC(=O)COCCOCCNC(=O)CC[C@H](NC(=O)CCCCCCCCCCCCCCCCC(=O)O)C(=O)O)C(=O)NCC(=O)NCC(=O)N[C@@H](CO)C(=O)N[C@@H](CCCCNc1c(NCCCCCN(O)C(=O)CCC(=O)NCCCCCN(O)C(=O)CCC(=O)NCCCCCN(O)C(C)=O)c(=O)c1=O)C(=O)NCC(=O)NCC(=O)N[C@@H](CO)C(=O)N[C@@H](CCCCNc1c(NCCCCCN(O)C(=O)CCC(=O)NCCCCCN(O)C(=O)CCC(=O)NCCCCCN(O)C(C)=O)c(=O)c1=O)C(=O)O)C(C)C | GLP1R | agonist, CRE luciferase reporter | BHK cells | Zr-loaded DFO conjugate, together with: 1% HSA | reference: parent peptide | fold potency loss | 1.2
CCN1CCC[C@H]1CNC(=O)c1c(O)c(Cl)cc(Cl)c1OC | GPRC5C (Homo sapiens, UniProt Q9NQ84) | β-arrestin recruitment, TANGO luminescence | – | concentration not given | reference: basal luminescence | log2 fold change | 0.303
CC(=O)N[C@H](C(=O)N1C[C@H](O)C[C@H]1C(=O)NCc1ccc(-c2scnc2C)cc1)C(C)(C)SCCCCCCNC(=O)C[C@@H]1N=C(c2ccc(Cl)cc2)c2c(sc(C)c2C)-n2c(C)nnc21 | BRD2/VHL, BD1; with VCB (Homo sapiens, UniProt P25440+P40337, K107A/Q101K/V106E) | ITC | – | 25 °C, together with: BRD2 BD1 | reference: binary Kd over ternary Kd | cooperativity | 7
CC[C@H](C)[C@@H]1NC(=O)[C@H]([C@@H](C)O)NC(=O)[C@@H]2CCCN2C(=O)[C@H](CC(C)C)NC(=O)[C@H](Cc2ccc(O)cc2)NC(=O)CSC[C@@H](C(N)=O)NC(=O)[C@H](CC(C)C)NC(=O)[C@@H]2CCCN2C(=O)[C@H](Cc2c[nH]cn2)NC(=O)[C@H](Cc2c[nH]c3ccccc23)NC(=O)[C@H](CC(C)C)NC(=O)[C@H](Cc2c[nH]cn2)NC(=O)CNC(=O)[C@H](C(C)C)NC(=O)CNC(=O)[C@H]([C@@H](C)O)NC1=O | Vacuolar protein sorting-associated protein 29 (VPS29, Homo sapiens, UniProt Q9UBQ0) | binding, ITC | – | 25 °C, protein alone | – | -TΔS | 1.6 ± 0.9 kcal/mol
COc1cc(C[C@H]2C(=O)OC[C@@H]2Cc2ccc(OC)c(OC)c2)ccc1O | 3',5'-cyclic-AMP phosphodiesterase 4D (PDE4D, Homo sapiens, UniProt Q08499) | isothermal titration calorimetry | – | – | – | ΔH | -9.17 ± 0.39 kcal/mol
COCCN(C)C(=O)c1ccc([C@H]2[C@@H](F)[C@@H](F)C[C@@H](F)[C@H]2F)cc1 | – | liver microsome stability | mouse liver microsomes | 1 µM | – | hepatic clearance | 43 mL/min/kg
CC[C@H](C)[C@H](NC(=O)[C@H](Cc1ccccc1)NC(=O)[C@H](CCC(=O)O)NC(=O)[C@H](CCCNC(=N)N)NC(=O)[C@H](C)NC(=O)[C@H](C)NC(=O)[C@H](CCC(N)=O)NC(=O)[C@H](CCC(=O)O)NC(=O)[C@H](CCC(=O)O)NC(=O)[C@H](CC(C)C)NC(=O)[C@H](Cc1ccc(O)cc1)NC(=O)[C@H](CO)NC(=O)[C@H](CO)NC(=O)[C@H](CCCCNc1c(NCCCCCN(O)C(=O)CCC(=O)NCCCCCN(O)C(=O)CCC(=O)NCCCCCN(O)C(C)=O)c(=O)c1=O)NC(=O)[C@H](CC(=O)O)NC(=O)[C@H](CO)NC(=O)[C@@H](NC(=O)[C@H](Cc1ccccc1)NC(=O)[C@@H](NC(=O)CNC(=O)[C@H](CCC(=O)O)NC(=O)[C@H](C)NC(=O)CCc1cnc[nH]1)[C@@H](C)O)[C@@H](C)O)C(=O)N[C@@H](C)C(=O)N[C@@H](Cc1c[nH]c2ccccc12)C(=O)N[C@@H](CC(C)C)C(=O)N[C@H](C(=O)N[C@@H](CCCCNc1c(NCCCCCN(O)C(=O)CCC(=O)NCCCCCN(O)C(=O)CCC(=O)NCCCCCN(O)C(C)=O)c(=O)c1=O)C(=O)NCC(=O)N[C@@H](CCCNC(=N)N)C(=O)N[C@@H](CCCCNC(=O)COCCOCCNC(=O)COCCOCCNC(=O)CC[C@H](NC(=O)CCCCCCCCCCCCCCCCC(=O)O)C(=O)O)C(=O)O)C(C)C | GLP1R | agonist, CRE luciferase reporter | BHK cells | metal-free DFO conjugate, together with: 0% HSA | reference: parent peptide | fold potency loss | 63.2
Oc1ccc(/C=C/c2cc(O)cc(O)c2)cc1 | O-methyltransferase (Sorghum bicolor, UniProt A0A1B6PFV1) | ITC | – | concentration not given, together with: MET+ | – | binding stoichiometry | 0.57 ± 0.005
COc1cc(Nc2ncc3c(n2)-c2ccc(Cl)cc2C(c2c(F)cccc2OC)=NC3)ccc1C(=O)O | ALK | kinase activity | – | 1 µM | – | remaining activity | 83%
O=C(NCc1cc[nH]n1)c1ccc([C@H]2[C@@H](F)[C@@H](F)C[C@@H](F)[C@H]2F)cc1 | – | liver microsome stability | cynomolgus liver microsomes | 1 µM | – | hepatic clearance | 4.9 mL/min/kg
CN1CCN(S(=O)(=O)c2ccc(-c3cnc(N)c(C(=O)Nc4cccnc4)n3)cc2)CC1 | NanoBiT HiBiT/LgBiT luciferase | inhibitor, HiBiT luminescence counterscreen | conditioned medium only | 5 µM, 24 h | reference: vehicle | luminescence signal reduction | -6.55%
Oc1ccc(/C=C/c2cc(O)cc(O)c2)cc1 | Amyloid-beta precursor protein (APP, Homo sapiens, UniProt P05067) | fibril formation, ThT fluorescence | – | 10 µM, 42 h, pH 7.4, equimolar to peptide, together with: amyloid-beta 1-42 10 µM | reference: untreated amyloid-beta | ThT fluorescence | 22 ± 4%

For quick reference, copied from above:
SMILES | target or system | test | system | setting | how to read | measurement | value
Oc1ccc(/C=C/c2cc(O)cc(O)c2)cc1 | O-methyltransferase (Sorghum bicolor, UniProt A0A1B6PFV1) | ITC | – | concentration not given, together with: MET+ | – | binding stoichiometry | 0.57 ± 0.005
O=C(NCc1cc[nH]n1)c1ccc([C@H]2[C@@H](F)[C@@H](F)C[C@@H](F)[C@H]2F)cc1 | – | liver microsome stability | cynomolgus liver microsomes | 1 µM | – | hepatic clearance | 4.9 mL/min/kg
